Measurements gathered from unrelated publications.
± gives the spread as reported.
Cell line: A549

SMILES | test | conditions | IC50
O=C1N=C(N2N=C(c3cccs3)CC2c2ccc(F)cc2)SC1=Cc1ccc(O)cc1 (stereo not shown) | cell growth or viability, MTT | – | 8.1 µM
COc1cc(C(=O)c2[nH]c(N)nc2-c2cccnc2)cc(OC)c1OC | cell growth or viability, SRB | 24 h | 0.307 µM
[Cl-].[Cl-].[Ru+2].c1ccc(-c2ccnc3c2ccc2c(-c4ccccc4)ccnc23)cc1.c1cnc2c(c1)ccc1cccnc12.c1cnc2c(c1)ccc1cccnc12 | cell growth or viability | 72 h, dark | 11.8 µM
CC(C)CCc1c(O)cc2oc3cc(O)c(O)c(CCC(C)C)c3c(=O)c2c1O | cell growth or viability | 48 h | 15.6 µM
CC(=O)O[C@@H]1CC[C@@]2(C)[C@@H](CC[C@]3(C)[C@@H]2C(=O)C=C2[C@@H]4[C@@H](C)[C@H](C)CC[C@]4(C)CC[C@]23C)[C@@]1(C)C(=O)NCCNC(=O)CCCCCCCCCC[P+](c1ccccc1)(c1ccccc1)c1ccccc1 | cell growth or viability, MTT | 48 h | 1.32 µM
N#Cc1cccc(-c2ccc(=O)n(Cc3cccc(-c4ncc(OCC5CCN(CCCCCCC(=O)Nc6cccc7c6C(=O)N(C6CCC(=O)NC6=O)C7=O)CC5)cn4)c3)n2)c1 (stereo not shown) | cell growth or viability, CCK-8 | 72 h | 1.03 µM
C[O][Pt-2]1([Cl])([Cl])([O]C(=O)CCC(=O)O)[NH2+]CC[N+]1(C)C | cell growth or viability, MTT | 96 h | > 250 µM
COc1c(O)cc2oc3cc4c(c(O)c3c(=O)c2c1CC=C(C)C)C=CC(C)(C)O4 | cell growth or viability | 48 h | 11.5 µM
CC1=CC(C)=[N+]2C1=C(CO)c1c(C)cc(C)n1[B-]2(F)F | cell viability, resazurin | 48 h, 510 nm irradiation 2.44 J/cm2 | 11 ± 3 µM
N#Cc1cccc(-c2ccc(=O)n(Cc3cccc(-c4ncc(OCC5CCN(CCCCC(=O)Nc6ccc7c(c6)C(=O)N(C6CCC(=O)NC6=O)C7=O)CC5)cn4)c3)n2)c1 (stereo not shown) | cell growth or viability, CCK-8 | 72 h | 0.977 µM
CN1CCC2(CC1)C/C(=N\NC(=O)Nc1ccccc1)c1ccccc1O2 | cell growth or viability, MTT | 48 h | 5.83 µM
CC[C@H](C)[C@H](N)C(=O)Nc1ccc2nc(Cc3c[nH]c4ccccc34)[nH]c2c1 | cell growth or viability, ATP luminescence | 72 h | 16.2 µM
S=c1n(-c2ccccc2)c2c3ccccc3nc3[n+]2[n]1[Ir-3]12([S]3)([c]3cccc4ccc5ccc[n+]1c5c34)[c]1cccc3ccc4ccc[n+]2c4c13 | cell viability, MTT | irradiation 450 nm, 15.5 mW/cm^2, 15 min | 0.0019 ± 0.0001 µM
CC(=O)[O][Pt]([Cl])([Cl])[O]C(=O)CCCc1ccccc1.N.N | cell growth or viability | – | 7.16 µM
Cc1ccc2nc(NC(=O)Cn3cc(COc4ccc(/C=N/Nc5cc([N+](=O)[O-])cc([N+](=O)[O-])c5)cc4)nn3)sc2c1 | cell growth or viability, MTT | 48 h | 65 µM
C[C@]12CC/C(=N/O)C=C1CCC1C2CC[C@]2(C)/C(=C/c3ccccn3)CCC12 (stereo partly shown) | cell growth or viability, MTT | 72 h | 1.8 µM
CN(C)c1cc[n+](CCCCC[n+]2ccc(N(C)C)cc2)cc1 | cell growth or viability, MTT | 24 h | 1260 µM
CCn1c[n+](CC)c2ccccc21 | cell growth or viability, crystal violet | 72 h | > 50 µM
CC(=O)O[C@@H]1CC[C@@]2(C)[C@@H](CC[C@]3(C)[C@@H]2C(=O)C=C2[C@@H]4[C@@H](C)[C@H](C)CC[C@]4(C)CC[C@]23C)[C@@]1(C)C(=O)NCCNC(=O)C1CC1 | cell growth or viability, MTT | 48 h | 7.16 µM
C=CCSc1nc(N)c2c(F)c(C#N)c(F)c(Cl)c2n1 | cell growth or viability, MTT | 96 h | 18.8 µM
Cc1cc(C)c([N+]#[C][Pt-]([Cl])([Cl])=[C](Nc2ccc(CN[C](Nc3c(C(C)C)cccc3C(C)C)=[Au][Cl])cc2)Nc2c(C)cc(C)cc2C)c(C)c1 | cell growth or viability | – | > 100 µM
[Cl-].[Cl-].[Ru+2].c1ccc2nc(-c3ccc4ccccc4n3)ccc2c1.c1ccc2nc(-c3ccc4ccccc4n3)ccc2c1.c1cnc2c(c1)ccc1cccnc12 | cell growth or viability | 72 h, dark | 31.3 µM
C=CC(=C)CC[C@]1(C)[C@H](C)C[C@H](OC(=O)CCCCCCC)[C@@]23C(=C[C@H](OC(C)=O)C[C@@H]12)[C@@H](OC(C)=O)O[C@H]3OC(C)=O | cell growth or viability, SRB | – | 5.98 µM
CC(=O)O[C@@H]1CC[C@@]2(C)[C@@H](CC[C@]3(C)[C@@H]2C(=O)C=C2[C@@H]4[C@@H](C)[C@H](C)CC[C@]4(C)CC[C@]23C)[C@@]1(C)C(=O)NCCNC(=O)c1ccc(C)cc1 | cell growth or viability, MTT | 48 h | 16 µM
C=CC(=O)Nc1cc(Nc2nccc(-c3c(-c4ccc5c(c4)OCO5)n(C)c4ccccc34)n2)c(OC)cc1N(C)CCN(C)C | cell growth or viability, MTT | 72 h | 1.11 µM
N[C@@H]1CCCC[C@H]1N.O=C1[O][Pt]2([O]C1=O)[O]C(=O)C(=O)[O]2 | cell viability, MTT | 96 h | 46 ± 7 µM
Cc1ccc(C(C)C)cc1.Oc1ccccc1C=NNC1=Nc2ccccc2-c2[nH]c3ccc(Br)cc3c2C1.[Cl-].[Cl][Ru+] | cell growth or viability, MTT | 96 h | 3.1 µM
COc1cc(/C=C/C(=O)NCCCCCCNC2=C3C[C@@H](C)C[C@H](OC)[C@H](O)[C@@H](C)/C=C(\C)[C@H](OC(N)=O)[C@@H](OC)/C=C\C=C(/C)C(=O)NC(=CC2=O)C3=O)ccc1O | cell growth or viability, MTT | 72 h | 0.336 µM

SMILES | test | conditions | IC50
CCN1CCC2(CC1)C/C(=N\NC(=O)Nc1ccc(OC)cc1)c1ccccc1O2 | cell growth or viability, MTT | 48 h | 24.1 µM
O=C(Nc1ccc([N+](=O)[O-])cc1)C(c1ccc(C(F)(F)F)cc1)N(Cc1ccccc1)C(=O)c1ccc2ccccc2n1 (stereo not shown) | – | 48 h | 33.3 ± 2.1 µM
O=C1c2cccc3cccc(c23)C12NC(Cc1ccc(O)cc1)C([N+](=O)[O-])C2c1ccccc1 (stereo not shown) | cell growth or viability, MTT | 24 h | 82 µM
COc1cc(/C=C/C(=O)CC(C)=O)ccc1O | cell growth or viability, MTT | 48 h | 25 µM
CC(=O)OC[C@@]12CCC[C@@](C)(CO)[C@H]1CC[C@@]13C[C@@H](C[C@H](O)[C@H]12)[C@H](C)C3=O | cell growth or viability, MTT | – | > 20 µM
Cc1ccc(C(C)C)cc1.O=C(N=P(c1ccccc1)(c1ccccc1)c1ccccc1)c1[c-]cccc1.[Cl-].[Ru+2] | cell growth or viability, MTT | 24 h | 29.9 µM
CC(C)=CCC1=C([O-])C(=O)c2ccccc2C1=O.CC(C)=CCC1=C([O-])C(=O)c2ccccc2C1=O.Cc1cc2cccnc2c2ncccc12.[Cu+2] | cell viability, MTT | 24 h | 2.7 ± 0.1 µM
CC1=CC(C)=[N+]2C1=C(CO)c1c(C)cc(C)n1[B-]2(C)C | cell viability, resazurin | 48 h, 510 nm irradiation 2.44 J/cm2 | 1 ± 0.4 µM
CC(=O)O[C@H]1CC[C@]2(C)[C@H]3CC=C4[C@@H]5CC(C)(C)CC[C@]5(CO)CC[C@@]4(C)[C@]3(C)CC[C@H]2C1(C)C | cell growth or viability, SRB | – | > 100 µM
O=C1c2cccc3cccc(c23)C12NC(Cc1ccc(O)cc1)C([N+](=O)[O-])C2c1ccc(Br)cc1 (stereo not shown) | cell growth or viability, MTT | 48 h | 33.6 µM
COc1ccc(-c2nnc(-c3ccccn3)[nH]2)cc1OC.COc1ccc(-c2nnc(-c3ccccn3)[nH]2)cc1OC.[Cu+2].[O-][Cl+3]([O-])([O-])[O-].[O-][Cl+3]([O-])([O-])[O-] | cell growth or viability, MTT | 24 h | 78.6 µM
Cc1[nH]c(=O)c(CNC(=O)c2ccc(C(F)(F)F)cc2)c2c1CCCC2 | cell growth or viability, MTT | 72 h | > 100 µg/mL
C=CC(=O)Nc1cc(Nc2nccc(-c3c(-c4cccc(F)c4)n(C)c4ccccc34)n2)c(OC)cc1N(C)CCN(C)C | cell growth or viability, MTT | 72 h | 0.433 µM
Cc1ccc(C2=NN(C3=NC(=O)/C(=C/c4ccc(N(C)C)cc4)S3)C(c3ccc(F)cc3)C2)cc1 (stereo not shown) | cell growth or viability, MTT | – | 28.8 µM
Cc1cc(C)c(N[C](NCc2cccc(N[C](Nc3c(C(C)C)cccc3C(C)C)=[Pd-]([Cl])([Cl])[C]#[N+]c3c(C(C)C)cccc3C(C)C)c2)=[Au][Cl])c(C)c1 | cell growth or viability | – | > 100 µM
COc1ccc2c(c1)c(C)c1c(-c3ccccc3)c(S(=O)(=O)c3ccc(C)cc3)c3ccccc3n12 | cell growth or viability, MTT | 72 h | 14.6 µM
CC(C)c1cccc(C(C)C)c1[N+]#[C][Pt-]([Cl])([Cl])=[C](Nc1ccc(CN[C](NC(C)(C)C)=[Au][Cl])cc1)Nc1c(C(C)C)cccc1C(C)C | cell growth or viability | – | > 100 µM
CC(=O)OC1CCC2(C)C3=CCC4(C)C(C(C)CCC=C(C)C)CC(O)C4(C)C3=CCC2C1(C)C (stereo not shown) | cell viability, MTT | 72 h | inactive
Cc1c(C)c(C)[c-](C)c1C.O=Cc1c[c-]c(-c2ccccn2)cc1.[Cl-].[Ir+3] | SRB | 24 h, 72 h recovery | 15.8 ± 0.4 µM
CC(C)=CCc1c(O)c(CC=C(C)C)c2occ(-c3ccc(O)c(O)c3)c(=O)c2c1O | cell growth or viability, MTT | – | > 100 µM
CCOC12C(O)C(OC)C3(O)CC(O)(C1C3OC(=O)c1ccccc1)C13C(OC)CC(O)C4(COC)CN(C)C1C2C(OC)C43 (stereo not shown) | cell growth or viability, MTT | – | 17.8 µM
Cc1cc(C#N)cc(C)c1Oc1cc(Nc2ccc(C#N)cn2)nc2ccncc12 | – | 48 h | > 127 µM
COC(=O)[C@@H](NC(=O)[C@@H](NC(=O)OC(C)(C)C)C(C)C)C(C)C | cell growth or viability, SRB | – | 1 µM
C=C(C)[C@@H]1CC[C@]2(COC(=O)CCC(=O)O)CC[C@]3(C)[C@H](CC[C@@H]4[C@@]5(C)CC[C@H](OC(=O)CCC(=O)O)C(C)(C)[C@@H]5CC[C@]43C)[C@@H]12 | cell growth or viability, SRB | 72 h | 7.09 µg/mL
O=[N+]([O-])[O-].[NH3+][Pt-2]1([NH3+])[O]C(c2ccccc2)=CC(c2ccccc2)=[O+]1 (stereo not shown) | cell growth or viability, MTT | – | 1.3 µM
Cc1cc(C)c(N=[C](NCc2ccc(N)cc2)[AuH][Cl])c(C)c1 | cell growth or viability | – | > 100 µM
C=C1C(=O)[C@@]23CC[C@@H]4C(C)(C)CCC[C@@]4(COC(C)=O)[C@@H]2[C@@H](O)C[C@@H]1C3 (single isomer, unassigned) | cell growth or viability, MTT | – | 4 µM

For quick reference, copied from above:
SMILES | test | conditions | IC50
CC(=O)[O][Pt]([Cl])([Cl])[O]C(=O)CCCc1ccccc1.N.N | cell growth or viability | – | 7.16 µM
CC(=O)OC[C@@]12CCC[C@@](C)(CO)[C@H]1CC[C@@]13C[C@@H](C[C@H](O)[C@H]12)[C@H](C)C3=O | cell growth or viability, MTT | – | > 20 µM
CC(=O)O[C@H]1CC[C@]2(C)[C@H]3CC=C4[C@@H]5CC(C)(C)CC[C@]5(CO)CC[C@@]4(C)[C@]3(C)CC[C@H]2C1(C)C | cell growth or viability, SRB | – | > 100 µM
[Cl-].[Cl-].[Ru+2].c1ccc(-c2ccnc3c2ccc2c(-c4ccccc4)ccnc23)cc1.c1cnc2c(c1)ccc1cccnc12.c1cnc2c(c1)ccc1cccnc12 | cell growth or viability | 72 h, dark | 11.8 µM
CC(C)=CCc1c(O)c(CC=C(C)C)c2occ(-c3ccc(O)c(O)c3)c(=O)c2c1O | cell growth or viability, MTT | – | > 100 µM
CN(C)c1cc[n+](CCCCC[n+]2ccc(N(C)C)cc2)cc1 | cell growth or viability, MTT | 24 h | 1260 µM
N[C@@H]1CCCC[C@H]1N.O=C1[O][Pt]2([O]C1=O)[O]C(=O)C(=O)[O]2 | cell viability, MTT | 96 h | 46 ± 7 µM
C=CC(=O)Nc1cc(Nc2nccc(-c3c(-c4cccc(F)c4)n(C)c4ccccc34)n2)c(OC)cc1N(C)CCN(C)C | cell growth or viability, MTT | 72 h | 0.433 µM
C=C(C)[C@@H]1CC[C@]2(COC(=O)CCC(=O)O)CC[C@]3(C)[C@H](CC[C@@H]4[C@@]5(C)CC[C@H](OC(=O)CCC(=O)O)C(C)(C)[C@@H]5CC[C@]43C)[C@@H]12 | cell growth or viability, SRB | 72 h | 7.09 µg/mL
